Results from different studies.
Compare with care: the assays were run in different laboratories. ± marks the error that the study gave.
KDM1A: Lysine-specific histone demethylase 1A (KDM1A, Homo sapiens, UniProt O60341)
Rhomboid protease AarA: Rhomboid protease AarA (Providencia stuartii, UniProt P46116)
Sequence of UniProt P46116 (whole entry, looked up): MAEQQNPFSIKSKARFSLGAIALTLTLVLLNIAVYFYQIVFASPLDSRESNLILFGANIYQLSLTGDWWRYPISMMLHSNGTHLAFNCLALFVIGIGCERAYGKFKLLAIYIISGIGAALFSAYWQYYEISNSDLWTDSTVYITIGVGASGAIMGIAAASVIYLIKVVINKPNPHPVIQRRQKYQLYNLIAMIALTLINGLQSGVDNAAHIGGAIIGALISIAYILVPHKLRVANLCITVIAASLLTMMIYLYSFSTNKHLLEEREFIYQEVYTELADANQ
Sequence of UniProt Q9HB29 (whole entry, looked up): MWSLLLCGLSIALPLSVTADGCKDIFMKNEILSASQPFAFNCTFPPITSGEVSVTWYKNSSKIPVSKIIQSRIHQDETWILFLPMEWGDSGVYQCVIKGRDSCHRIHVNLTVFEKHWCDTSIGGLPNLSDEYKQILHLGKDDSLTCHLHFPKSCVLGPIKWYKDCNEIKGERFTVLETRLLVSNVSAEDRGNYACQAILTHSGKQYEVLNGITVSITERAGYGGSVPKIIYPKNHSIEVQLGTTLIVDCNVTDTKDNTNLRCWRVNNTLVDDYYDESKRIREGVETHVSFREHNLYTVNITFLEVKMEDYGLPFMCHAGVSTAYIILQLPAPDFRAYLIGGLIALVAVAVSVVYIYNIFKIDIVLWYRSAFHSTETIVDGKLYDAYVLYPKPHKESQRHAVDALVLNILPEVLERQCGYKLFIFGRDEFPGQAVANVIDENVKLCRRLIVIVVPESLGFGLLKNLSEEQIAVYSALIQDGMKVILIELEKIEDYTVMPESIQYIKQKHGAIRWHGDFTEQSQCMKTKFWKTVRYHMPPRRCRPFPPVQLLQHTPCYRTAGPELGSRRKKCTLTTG
Sequence of UniProt P10721 (whole entry, unmodified, looked up): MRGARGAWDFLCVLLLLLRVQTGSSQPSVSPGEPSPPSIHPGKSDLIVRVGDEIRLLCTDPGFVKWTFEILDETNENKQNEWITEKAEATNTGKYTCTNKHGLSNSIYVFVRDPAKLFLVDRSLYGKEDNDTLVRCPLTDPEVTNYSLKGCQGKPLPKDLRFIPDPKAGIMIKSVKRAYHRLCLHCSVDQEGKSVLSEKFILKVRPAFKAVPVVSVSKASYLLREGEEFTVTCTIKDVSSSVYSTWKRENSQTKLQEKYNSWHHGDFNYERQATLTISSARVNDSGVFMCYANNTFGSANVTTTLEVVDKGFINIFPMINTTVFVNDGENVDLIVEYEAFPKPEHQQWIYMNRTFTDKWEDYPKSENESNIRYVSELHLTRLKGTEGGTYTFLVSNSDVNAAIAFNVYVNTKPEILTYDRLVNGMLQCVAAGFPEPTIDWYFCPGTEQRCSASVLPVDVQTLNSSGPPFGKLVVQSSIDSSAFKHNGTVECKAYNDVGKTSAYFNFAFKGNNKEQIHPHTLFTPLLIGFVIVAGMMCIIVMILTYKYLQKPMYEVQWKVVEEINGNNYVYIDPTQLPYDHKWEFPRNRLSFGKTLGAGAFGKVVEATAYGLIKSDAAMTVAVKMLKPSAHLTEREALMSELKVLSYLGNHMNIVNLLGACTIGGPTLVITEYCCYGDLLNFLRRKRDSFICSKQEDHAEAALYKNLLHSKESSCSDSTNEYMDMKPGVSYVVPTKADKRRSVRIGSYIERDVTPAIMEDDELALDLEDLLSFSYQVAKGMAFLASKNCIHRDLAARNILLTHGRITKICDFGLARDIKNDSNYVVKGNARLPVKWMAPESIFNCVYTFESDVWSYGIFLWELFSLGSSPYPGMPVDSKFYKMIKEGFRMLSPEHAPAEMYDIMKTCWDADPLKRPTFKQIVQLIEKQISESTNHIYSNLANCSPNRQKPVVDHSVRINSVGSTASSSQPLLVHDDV
Sequence of UniProt P00519 (whole entry, unmodified, looked up): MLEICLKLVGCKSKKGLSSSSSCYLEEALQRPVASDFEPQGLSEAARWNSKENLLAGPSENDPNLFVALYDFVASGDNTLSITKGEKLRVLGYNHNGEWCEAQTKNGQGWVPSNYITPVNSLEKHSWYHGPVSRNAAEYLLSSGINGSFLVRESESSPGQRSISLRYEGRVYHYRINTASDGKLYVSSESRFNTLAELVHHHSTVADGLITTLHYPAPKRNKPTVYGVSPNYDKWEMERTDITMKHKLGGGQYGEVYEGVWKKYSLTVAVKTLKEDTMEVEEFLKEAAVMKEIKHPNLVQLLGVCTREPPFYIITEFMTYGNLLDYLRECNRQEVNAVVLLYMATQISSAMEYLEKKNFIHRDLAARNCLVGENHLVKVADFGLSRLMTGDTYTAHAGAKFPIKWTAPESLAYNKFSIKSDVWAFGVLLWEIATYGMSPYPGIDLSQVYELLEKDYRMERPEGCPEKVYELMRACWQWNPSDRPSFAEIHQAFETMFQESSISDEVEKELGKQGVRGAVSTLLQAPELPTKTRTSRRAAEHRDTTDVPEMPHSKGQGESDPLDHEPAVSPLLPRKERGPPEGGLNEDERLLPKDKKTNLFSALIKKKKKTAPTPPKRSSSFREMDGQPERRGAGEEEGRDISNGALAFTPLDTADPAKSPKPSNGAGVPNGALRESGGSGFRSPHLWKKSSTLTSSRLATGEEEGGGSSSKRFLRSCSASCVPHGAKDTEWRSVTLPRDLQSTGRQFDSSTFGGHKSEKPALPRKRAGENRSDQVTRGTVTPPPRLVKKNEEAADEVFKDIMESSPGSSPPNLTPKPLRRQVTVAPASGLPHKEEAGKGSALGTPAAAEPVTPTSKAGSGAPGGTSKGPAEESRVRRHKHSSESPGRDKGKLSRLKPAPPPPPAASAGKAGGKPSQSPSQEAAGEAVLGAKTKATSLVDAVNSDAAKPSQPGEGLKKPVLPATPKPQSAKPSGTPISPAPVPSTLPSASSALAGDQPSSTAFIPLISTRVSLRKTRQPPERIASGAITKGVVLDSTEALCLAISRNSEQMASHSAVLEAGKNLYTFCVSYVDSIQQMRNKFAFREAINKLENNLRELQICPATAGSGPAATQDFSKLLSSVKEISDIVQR
Sequence of UniProt P12295 (whole entry, looked up): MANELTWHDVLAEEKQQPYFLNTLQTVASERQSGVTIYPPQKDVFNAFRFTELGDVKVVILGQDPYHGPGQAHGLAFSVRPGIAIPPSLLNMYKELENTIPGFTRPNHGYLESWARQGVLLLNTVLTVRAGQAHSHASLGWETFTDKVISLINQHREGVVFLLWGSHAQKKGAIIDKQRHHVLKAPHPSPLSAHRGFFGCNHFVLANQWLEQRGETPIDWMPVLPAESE

CN(C)C(=O)c1cccc([C@@H]2C[C@H]2NC2CCC2)c1
remaining activity (KDM1A; demethylase activity, inhibitor; 50 µM, added: H3K4me2 peptide): 40.3%

C=CC(=O)N1CCCC(n2c(=O)c3ncccc3n(Cc3ccc(Oc4ccccc4)cc3)c2=O)C1 (stereo not drawn)
remaining activity (Tyrosine-protein kinase ABL1 (ABL1, Homo sapiens, UniProt P00519, Q252H); kinase activity; 1 µM): 87%

O=C=[N][Ru-4]123([n]4c5ccc(O)cc5c5c6c(c7cc(F)c[n+]1c7c54)C(=O)NC6=O)[S+]1CC[S+]2CC[S+]3CC1 (stereo not drawn)
remaining activity (Mast/stem cell growth factor receptor Kit (KIT, Homo sapiens, UniProt P10721, V654A); enzyme activity; 100 nM, human enzyme, added: 10 µM ATP; baseline: untreated): 73%

Cc1cnc(NC(=O)c2cccc([C@@H]3C[C@H]3NC3CCC3)c2)s1
remaining activity (KDM1A; demethylase activity, inhibitor, Amplex Red; 0.07407 µM, added: H3K4me2 peptide; baseline: vehicle): 83%

Cc1cccc(-c2ccc3nc(NC(=O)C4CCCCC4)nn3c2)c1
remaining activity (AMPK; enzyme activity; 10 µM): 99%

O=C(Nc1ccccc1)c1cccc([C@@H]2C[C@H]2NC2CCC2)c1 (racemic)
remaining activity (KDM1A; demethylase activity, inhibitor, Amplex Red; 0.002743 µM, added: H3K4me2 peptide; baseline: vehicle): 96.6%

CC1C(=O)N(S(=O)(=O)c2ccc(Cl)cc2)C1c1ccccc1 (stereo not drawn)
remaining activity (Rhomboid protease AarA; enzyme activity, inhibitor; 100 µM): 60%

CC(C)[C@@H]1NC(=O)[C@H](Cc2ccccc2)NC(=O)CSC[C@@H](C(N)=O)NC(=O)[C@H](CCC(=O)O)NC(=O)[C@H](CO)NC(=O)[C@H](Cc2c[nH]c3cccc(Cl)c23)NC(=O)[C@H](C2CCCCC2)NC(=O)[C@H](C(C)C)NC(=O)[C@H](Cc2ccc(O)cc2)NC(=O)[C@H](CC(=O)O)NC(=O)[C@H](Cc2c[nH]c3ccccc23)NC(=O)[C@H](Cc2ccc(N)nc2)NC(=O)[C@H](Cc2c[nH]c3ccc(Cl)cc23)NC(=O)[C@H](CCC(=O)O)NC1=O
remaining activity (Interleukin-1 receptor-like 2 (IL1RL2, Homo sapiens, UniProt Q9HB29); reporter gene; HEK-Blue IL-36R; 33.33 µM, 6 h, added: IL-36γ 0.3 ng/mL; baseline: stimulated without compound): 0.4%

COc1ccccc1-c1ccncc1C(=O)Nc1ccc(OCc2ccc(Cl)cc2)nn1
remaining activity (DNA polymerase theta, helicase domain (POLQ, Homo sapiens, UniProt O75417); ATPase activity, ADP-Glo; 0.48 µM; baseline: 0 µM cpd): 96%

CCC1(CO)CCCN(C(=O)c2ccc(CSC)o2)C1 (stereo not drawn)
remaining activity (ung (Escherichia coli, UniProt P12295); enzyme activity, inhibitor; concentration not given, counter-screen): 97.8 ± 3.2%

O=C(Nc1cccc([C@@H]2C[C@H]2NC2CCC2)c1)c1ccccc1
remaining activity (KDM1A; demethylase activity, inhibitor; 1.852 µM, added: H3K4me2 peptide): 82.2%

Cc1cccc(-c2ccc(S(=O)(=O)N3C(=O)CC3c3ccccc3)cc2)c1 (stereo not drawn)
remaining activity (Rhomboid protease AarA; enzyme activity, inhibitor; 100 µM): 100%
